Measured values gathered from unrelated publications.
Numbered parts are unrelated; each lists some results of a single study.

Set 1 — technique: RNA Bind-n-Seq; form: RNA; medium: in vitro; concentration: 365 nM; relative to: no-protein control; reading: higher = stronger binding
Target: RNA binding protein fox-1 homolog 2, RRM domain, GST-SBP tag (RBFOX2, Homo sapiens, UniProt O43251-10, residues 100-194)
Notes: natural RNA segment, single round, ends assumed
Constant ends, left off below: GGGAGUUCUACAGUCCGACGAUC … UGGAAUUCUCGGGUGCCAA
Residues (chain): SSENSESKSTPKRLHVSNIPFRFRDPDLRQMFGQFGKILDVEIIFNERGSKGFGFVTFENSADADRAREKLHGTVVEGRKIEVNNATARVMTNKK
Strand | RBNS enrichment (R)
GGUCUCUGUGAGCGCCACGCUGCUGUGCUGGAAAUGCCGCUUUAAAAAGGGAUACCGUGGGACUCUGCCCGUCUCUUUCAUAACGCAAUAUUUAUUUGUAUUGGGUGAUG | 0.266
UCUGAAGAGGAGGAGCAGGAGGAGCCUGCCCACUGGGCAUCGUGCCAUCCCCAUCAGGACCUCAGACCUGGGGUACCUGAACUCUGUCCCUCUGCUGCCGCCUCUGUCUG | 0.32
AGGUUCCCAGGGUGUGGAUGCCAGCCUCCACCCAUGCACCUGGGUACUGGGGCACUGUUACCUCCAGAAGGCACUACUUCUAUCGUAGGGCGAGUCUAAUUGUUAGACAU | 0.417
GGGCCGCCCGCGGACAAGCCCGAGGAGAAUGAGGUGAGCGCUGCCCAGUCUUCCCCGUGUGCCGGCUGCGAGCCUCCUUGCUCCUGCAUCUCGACCAUUCCGUGUUGGCU | 1.37
AAAUAUUAGCACAAAACACUAAAAUAGUGUUAACAAAAGGAGAUAUUGAGCCAGGCAGUGGUGACACGCACACCUUUAAUCCUGGCAUUUGGGAGGUAGAGGCAGUCAGA | 0.685
AGUACUUUAUAUUCUUUAUCAUAUCACUUUUUGUAAGUGUUGAAUAUAUUCCUGUUUAUUUUUCUAUGUUCUGUUUUGUAGCCUUAAGAAGUGUUUCAAACAUAUCUGAA | 0.64
UGCAGCUAACCAAGGACUCCUGUGUUUCUAUAAGCUAAUGCUCCAGAAACUUUGCCAACCUGUUAGUGUACACACACUGAGGGGAGUGCUCCCGGUGAAUAUUAUCAUAG | 0.355
UAUGUAAGUCAGUUCUUCAGGCUCAUUUGCUGUGCUGGUUUUACUAUUAUUUGUUUUCAAUGUAUAAAGGCAGUAUUUCCCUUUUCAGGUUGCUGAGAAAUGUAAGAGGA | 0.609
UCAGACAAGGAAUUUAGGAAGCAAAAGUUGACCAAGGGUGCAUUGGGUUCGCCUCCCCGAGGCUCCGUUUCCAAGCGAUUCAACGUUAACUACCUUUUUCUGUAUGCUUU | 0.456
CCCGAAGGGAGCUCUGGACCCUCAGAGCCCCUGCAGAGGACGGAUCUAGCUCCUGUAUAUAUAUUUUAUUGCAUGCACUGUGACCUUGGGGGGAGAACAGAAGGGGGACG | 21.2
GGUUCACCCCGCCCAAGGGACCUGCCCCCAUUCCUGUGGCCCUGGGGCCCAGCUUCCAAUAGUGUCAGAAGCAACUUGUGGCUUUGCCUUGGUUGUGAGAUGGGUACAUU | 0.22
GCAGAAUGUGACACUCAAAGCAUCCAUGCAGUACGCAUGUAACCUUGCACAGGAGUGGGGCUCUGGUGACCGAAGGUUGUCCAGGACUCUUGCAGGAGAAGCAAUGGAGU | 0.921

Set 2 — technique: aptamer microarray, sandwich; form: DNA with 2'F-ANA; medium: in vitro; concentration: 200 nM; together with: Cy3 exosite-II aptamer, 400 nM; reading: higher = stronger binding; strand: GGTTGGTGTGGTTGG
Target: Prothrombin, mature alpha-thrombin (F2, Homo sapiens, UniProt P00734)
Notes: whole 15-mer aptamer, many near background
Modification | mean fluorescence intensity [a.u.]
2'F-ANA at 2 3 4 7 9 10 | 325
2'F-ANA at 1 2 3 5 8 10 | 74.3
2'F-ANA at 2 4 6 11 12 | 368
2'F-ANA at 3 5 6 7 8 9 10 11 12 | 63.2
2'F-ANA at 5 10 11 14 | 47
2'F-ANA at 3 4 6 7 10 11 12 13 14 | 173
2'F-ANA at 1 2 6 7 8 10 11 12 | 65.2
2'F-ANA at 1 2 4 9 10 11 13 | 50.4
2'F-ANA at 1 2 5 6 7 8 10 15 | 81.5
2'F-ANA at 3 7 8 9 13 14 | 684
2'F-ANA at 2 6 10 11 13 | 101
2'F-ANA at 1 2 5 7 8 9 10 11 12 13 14 | 66.8
2'F-ANA at 2 3 5 7 9 10 11 13 14 15 | 246
2'F-ANA at 4 7 8 10 11 12 14 15 | 63.7
2'F-ANA at 2 4 5 7 8 10 12 13 14 15 | 46.5
2'F-ANA at 8 9 14 | 177
2'F-ANA at 1 2 4 7 9 10 14 | 43.4
2'F-ANA at 2 3 4 5 6 7 9 12 13 14 | 49.9
2'F-ANA at 1 2 3 4 6 7 9 10 12 13 14 15 | 61.7
2'F-ANA at 3 5 8 9 12 | 342

Set 3 — technique: protein binding microarray; form: double-stranded DNA, one strand shown; medium: in vitro; concentration: not given; relative to: not given; reading: higher = stronger binding
Target: Histone acetyltransferase KAT6A, both winged helices, GST fusion (KAT6A, Homo sapiens, UniProt Q92794, residues 1-181)
Notes: 8-mer, flanks averaged, mean of 2 arrays, mostly near background
Construct (chain): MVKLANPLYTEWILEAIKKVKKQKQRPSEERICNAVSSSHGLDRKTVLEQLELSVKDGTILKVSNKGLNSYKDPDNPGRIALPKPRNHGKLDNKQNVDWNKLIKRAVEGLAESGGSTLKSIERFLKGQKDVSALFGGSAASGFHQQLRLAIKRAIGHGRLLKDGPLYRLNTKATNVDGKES
Strand | E-score
GAGTACTC | -0.0526
ATAAAACA | 0.084
AGGCTTCA | -0.0203
GATTAGGC | -0.112
ATCTAAGA | -0.201
AGGTCCTC | -0.103
AGCGGTAA | 0.208
ATCTAAGG | -0.125
CCCTCAGA | -0.24
ATGAAGAC | -0.0607
ATTATCTC | -0.0874
ACGCTTCT | 0.155
CGCAGTAA | 0.134
TGTAATAA | -0.0266
CAATTTGC | -0.131
ATGTGAAA | -0.0624
GGATTACA | -0.0736
AACGTCTG | -8e-05
TCGGGAAA | 0.123
ATAAATTA | 0.0182
AGGCTGAG | -0.149
CGTGGCGC | 0.325

Set 4 — technique: RNA Bind-n-Seq; form: RNA; medium: in vitro; concentration: not given; relative to: input RNA pool; reading: higher = stronger binding
Target: RING finger protein unkempt homolog, zinc fingers 1-6, GST-SBP tag (UNK, Homo sapiens, UniProt Q9C0B0, residues 30-357)
UniProt Q9C0B0, sequence (30-357, looked up): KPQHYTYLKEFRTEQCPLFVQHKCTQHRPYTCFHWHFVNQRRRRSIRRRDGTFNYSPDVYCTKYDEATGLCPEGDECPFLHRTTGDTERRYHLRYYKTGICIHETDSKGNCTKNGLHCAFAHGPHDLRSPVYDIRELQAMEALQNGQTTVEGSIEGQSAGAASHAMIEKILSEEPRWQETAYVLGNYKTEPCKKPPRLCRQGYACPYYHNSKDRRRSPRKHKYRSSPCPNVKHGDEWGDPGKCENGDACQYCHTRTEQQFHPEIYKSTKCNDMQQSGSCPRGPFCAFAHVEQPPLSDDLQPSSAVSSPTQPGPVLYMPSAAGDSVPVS
Notes: RNA with constant flanks, human and mouse sites, ends assumed
Constant ends, left off below: GGGAGUUCUACAGUCCGACGAUC … CAACAGAGGAUUGAGCAUCA
Strand | bound/input enrichment
AUUCUUACAGAUAAAAACUGUAUAUGUUUAUAAAUAGUUAUAAAGAACUAUUUUAUAUAAUAGCUAUUAUCAUUGUAGAAAUGACUUACAAAUACAAAAUGUGUAUGUAAAUACUUUCUG | 0.398 ratio
GAACGGGGACGCCUGAAAGAAGAGCUAGAAGAAGCCCGGGACAUAGCUAGGCGGCGCUCUUUAGGGAAUAUCAAGUUUAUUGGAGAGUUAUUCAAGUUGAAGAUGUUAACAGAAGCAAUA | 288 ratio
UUUCAUUUAAGGACUUGUGCUGCUAAGUUAAGGCCAUUGACAGCCUCCCAGACUGUUAAGACAUUUUCACAAAACAAACCAGCAGCAAUUAGGACGUUUCAACAGAUUCGGUGCUAUUCU | 0.804 ratio
GGAAUCAACUUCAUGGUCUACCAGCCCACCCCGUGGGAGGCGUCCUCAGACUCGAUAAAACGUUUACAAAAUGCCAUGACAGAAAGUGGCGUGAUGCUUCGGGAGCCUCGAAGAAUCUAU | 0.113 ratio
AACCAAGGAACAGUGAUCCACUUUAACAACCCUAAAGUUCAGGCAUCUCUGGCAGCGAACACUUUCACCAUUACAGGCCAUGCUGAGACAAAGCAGCUGACAGAAAUGCUACCCAGCAUC | 0.183 ratio
UCCCCAGCCCCACCCGCCAAAAUGAACAGCUCGGACGAGGAGAAGCAGCUGCAGCUCAUCACCAGCUUGAAGGAGCAAGCCAUUGGCGAAUAUGAAGACCUUCGAGCAGAGAACCAGAAA | 0.267 ratio
UAGUGAACAAUGACCUCAUUUUAUUUUCUAUGUUAGUUAUUUAUUUCAAAAUUUACAUUUUAGUUUAUUUUCGUCUGUAAAGCGUAUGUUUCGCACUGCUCUUUUACUCUGAGGGUUUAA | 190 ratio
UUUAUUCCGUAAAACAUGAAGGACAAAACUCAAAAAUAUAUUUCAAGUCAACGGCCAGAAAACUCUCACCUUCUUCCCGCCCAAAAGGACCUUUCUGUACAUGACACUUUUUGUUGGUUU | 0.586 ratio
GUAAUCUUCCAAAGGAAGCUCUUUCAGGCCUUGAGGAAGCAUCCUGCUUAUCCCAAAGUAAUAGAAGAGUUUGUUAAUGGCCUGGAGUCCUACACUGAGGACAGUGAGAGUCUCAGGAAC | 0.176 ratio
GGCUCAUUUGUAAAAUUGUCCUAAUUUUUCCUAGCUUUCAGCCAUUAGAAACUCUUUUAAUAGUUCCUUUUGAGUUGUGAGCUCUUCUUCUGUAGCCCUGAAGGGACACUGUAUUCUGUA | 2.61 ratio
AUGACCGUGAAAUAAUGAGAGAAGGCAGUGCUUUCGAGGAUGACGACAUGUUAGUGAGCACCAGCGCUUCCAACCUUCUCCUCGAGCCAGAGCAGAGCACCAGCAACCUGAAUGAAAAGA | 0.147 ratio

Set 5 — technique: RNA Bind-n-Seq; form: RNA; medium: in vitro; concentration: 200 nM; notes: whole 134-nt RNA, ends assumed; together with: 150 mM LiCl; relative to: input library; reading: higher = stronger binding; library: 7-deaza-guanosine replaces G
Target: Fragile X messenger ribonucleoprotein 1, C-terminal low-complexity region (Fmr1, Mus musculus, UniProt P35922)
Constant ends, left off below: GGGAGUUCUACAGUCCGACGAUC … UGGAAUUCUCGGGUGUCAAGG
Strand | log2 enrichment
UAACUUUAGAGGAGGAUCUGAUGGAUAUGGCAGCGGACGUGGAUUUGGGGAUGGCUAUAAUGGGUAUGGAGGAGGACCUGGAGGUGGCAA | 0.236
ACCAUGCAGGUGGGCAUCUUUGGGAAGUGGGGCAAGGGGGGGAUAGGGAGGGGGGUAACACUUUGGGAACAGGUGGUCCCAGGUCGUAUC | 1.12
UCAAGUCCUGUGCUACACAUCGUAUGUACCGAAUCGGGUUGGGUUGGGUUGGGGAAAGUAUUAUGUUACGCCGUUCGGAUCUGCACUUCC | -0.407
AAGUCCUGUGCUACACAUCGUAUGUACCGAAUCGGGUUUGGGUUUUUUUGGGAGGGAAAGUAUUAUGUUACGCCGUUCGGAUCUGCACUU | -0.177
UCCUGUGCUACACAUCGUAUGUACCGAAUCAAACCCCCCCAAACCCCCAAACCCCCAAAAAAGUAUUAUGUUACGCCGUUCGGAUCUGCA | 0.709
AGUCCUGUGCUACACAUCGUAUGUACCGAAUCGGAAAAAAAGGAAAAAGGUUUUUGGAAAGUAUUAUGUUACGCCGUUCGGAUCUGCACU | -3.12
UGGGAGGUGGAUUUUGUUUAUUUUUUUAGCUUAUUUCCAGGGGUGGGAAUUUUUUUUUAAUAUGUGUCAUGAAUAAAGUUGUUUUUGAAA | 0.473
AAGUCCUGUGCUACACAUCGUAUGUACCGAAUCGGGGCCCCGGCCCCGGCCCCGGGGAAAGUAUUAUGUUACGCCGUUCGGAUCUGCACU | -2.17
CCUCAAGUCCUGUGCUACACAUCGUAUGUACCGAAUCGGGCGGCGGGGCGGGGAAAGUAUUAUGUUACGCCGUUCGGAUCUGCACUUCCA | -0.441
UGGCUAGUCAGCAGCGGAUGUCCCCUCCAGGUUAAGAAAGCCGAACCAGAGCCGAUGCGAGAGGAGGAGAAAAUGAUUCCUCCUACGAAA | 1.61
UGGGAGGUGGAUUUUGUUUUUUUUUUUAGCUCAUUUCCAGGGGUGGGAAUUUUUUUUUAAUAUGUGUCAUGAAUAAAGUUGUUUUUGAAA | 0.386

Some of these lines once more (set 1):
Strand | RBNS enrichment (R)
UCAGACAAGGAAUUUAGGAAGCAAAAGUUGACCAAGGGUGCAUUGGGUUCGCCUCCCCGAGGCUCCGUUUCCAAGCGAUUCAACGUUAACUACCUUUUUCUGUAUGCUUU | 0.456
GGUUCACCCCGCCCAAGGGACCUGCCCCCAUUCCUGUGGCCCUGGGGCCCAGCUUCCAAUAGUGUCAGAAGCAACUUGUGGCUUUGCCUUGGUUGUGAGAUGGGUACAUU | 0.22
AGGUUCCCAGGGUGUGGAUGCCAGCCUCCACCCAUGCACCUGGGUACUGGGGCACUGUUACCUCCAGAAGGCACUACUUCUAUCGUAGGGCGAGUCUAAUUGUUAGACAU | 0.417
UGCAGCUAACCAAGGACUCCUGUGUUUCUAUAAGCUAAUGCUCCAGAAACUUUGCCAACCUGUUAGUGUACACACACUGAGGGGAGUGCUCCCGGUGAAUAUUAUCAUAG | 0.355
